# Published values of several laboratories.
# Protocols differ between the studies behind these lines. Values joined by “and” are separate records of one study, mostly repeats; a detail may differ. Numbers after ± are the reported error.
# Aryl hydrocarbon receptor: Aryl hydrocarbon receptor (Danio rerio, UniProt Q9YGV3)
# Sequence of UniProt O15305 (whole entry, looked up): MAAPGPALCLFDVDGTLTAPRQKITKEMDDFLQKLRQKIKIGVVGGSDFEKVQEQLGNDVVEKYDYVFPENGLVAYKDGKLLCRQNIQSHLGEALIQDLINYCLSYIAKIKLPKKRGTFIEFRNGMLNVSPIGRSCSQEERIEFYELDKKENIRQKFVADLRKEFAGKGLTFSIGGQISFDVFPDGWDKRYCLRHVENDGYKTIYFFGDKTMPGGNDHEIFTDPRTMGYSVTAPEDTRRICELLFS
# Sequence of UniProt P00519 (whole entry, unmodified, looked up): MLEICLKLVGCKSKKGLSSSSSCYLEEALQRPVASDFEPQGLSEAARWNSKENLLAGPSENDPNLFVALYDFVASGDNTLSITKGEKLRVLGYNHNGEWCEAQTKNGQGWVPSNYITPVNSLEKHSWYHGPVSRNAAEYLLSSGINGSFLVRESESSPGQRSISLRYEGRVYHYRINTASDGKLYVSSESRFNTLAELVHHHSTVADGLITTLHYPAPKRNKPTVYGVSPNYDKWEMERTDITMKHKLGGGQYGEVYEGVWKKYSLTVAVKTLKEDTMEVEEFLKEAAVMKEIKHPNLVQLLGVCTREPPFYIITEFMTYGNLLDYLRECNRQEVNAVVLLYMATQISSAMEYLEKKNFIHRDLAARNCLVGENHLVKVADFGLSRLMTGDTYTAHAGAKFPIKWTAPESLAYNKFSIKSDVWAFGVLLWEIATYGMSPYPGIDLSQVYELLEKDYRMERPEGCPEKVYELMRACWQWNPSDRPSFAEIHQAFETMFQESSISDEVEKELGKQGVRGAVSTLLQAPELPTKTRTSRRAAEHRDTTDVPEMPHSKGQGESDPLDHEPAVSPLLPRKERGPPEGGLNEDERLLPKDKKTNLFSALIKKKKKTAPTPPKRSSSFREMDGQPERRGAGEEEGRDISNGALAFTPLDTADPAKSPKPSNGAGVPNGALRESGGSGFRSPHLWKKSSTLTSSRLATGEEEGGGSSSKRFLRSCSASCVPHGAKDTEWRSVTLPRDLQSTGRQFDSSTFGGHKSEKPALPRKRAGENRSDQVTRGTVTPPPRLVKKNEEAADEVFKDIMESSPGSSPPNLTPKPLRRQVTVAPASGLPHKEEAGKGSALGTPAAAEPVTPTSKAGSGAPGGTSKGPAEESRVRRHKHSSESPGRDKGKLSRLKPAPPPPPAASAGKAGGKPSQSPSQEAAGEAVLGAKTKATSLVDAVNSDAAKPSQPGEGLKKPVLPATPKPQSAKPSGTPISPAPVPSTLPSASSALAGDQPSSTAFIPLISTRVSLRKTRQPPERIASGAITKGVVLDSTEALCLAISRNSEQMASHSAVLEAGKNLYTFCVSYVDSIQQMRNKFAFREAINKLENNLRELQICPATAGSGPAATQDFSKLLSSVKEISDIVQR
# Sequence of UniProt P25963 (whole entry, unmodified, looked up): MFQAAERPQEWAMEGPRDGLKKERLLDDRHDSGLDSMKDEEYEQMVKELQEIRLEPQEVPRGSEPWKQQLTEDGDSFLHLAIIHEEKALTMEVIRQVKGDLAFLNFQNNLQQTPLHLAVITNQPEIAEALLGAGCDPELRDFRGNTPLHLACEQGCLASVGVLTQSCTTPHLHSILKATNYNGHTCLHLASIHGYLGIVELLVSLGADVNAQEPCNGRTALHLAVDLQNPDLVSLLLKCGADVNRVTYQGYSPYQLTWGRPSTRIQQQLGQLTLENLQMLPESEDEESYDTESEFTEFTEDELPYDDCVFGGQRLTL
# Sequence of UniProt Q9NWY4 (whole entry, looked up): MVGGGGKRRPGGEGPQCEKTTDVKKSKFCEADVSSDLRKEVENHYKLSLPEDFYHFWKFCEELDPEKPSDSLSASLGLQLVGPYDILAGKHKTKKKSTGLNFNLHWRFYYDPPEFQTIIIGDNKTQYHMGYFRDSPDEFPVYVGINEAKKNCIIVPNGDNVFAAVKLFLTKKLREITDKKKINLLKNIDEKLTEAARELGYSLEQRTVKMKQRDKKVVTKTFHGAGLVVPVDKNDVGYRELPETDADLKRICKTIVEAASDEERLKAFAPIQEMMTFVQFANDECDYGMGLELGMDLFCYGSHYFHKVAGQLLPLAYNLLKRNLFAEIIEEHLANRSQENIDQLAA
# Sequence of UniProt Q9HBX9 (whole entry, looked up): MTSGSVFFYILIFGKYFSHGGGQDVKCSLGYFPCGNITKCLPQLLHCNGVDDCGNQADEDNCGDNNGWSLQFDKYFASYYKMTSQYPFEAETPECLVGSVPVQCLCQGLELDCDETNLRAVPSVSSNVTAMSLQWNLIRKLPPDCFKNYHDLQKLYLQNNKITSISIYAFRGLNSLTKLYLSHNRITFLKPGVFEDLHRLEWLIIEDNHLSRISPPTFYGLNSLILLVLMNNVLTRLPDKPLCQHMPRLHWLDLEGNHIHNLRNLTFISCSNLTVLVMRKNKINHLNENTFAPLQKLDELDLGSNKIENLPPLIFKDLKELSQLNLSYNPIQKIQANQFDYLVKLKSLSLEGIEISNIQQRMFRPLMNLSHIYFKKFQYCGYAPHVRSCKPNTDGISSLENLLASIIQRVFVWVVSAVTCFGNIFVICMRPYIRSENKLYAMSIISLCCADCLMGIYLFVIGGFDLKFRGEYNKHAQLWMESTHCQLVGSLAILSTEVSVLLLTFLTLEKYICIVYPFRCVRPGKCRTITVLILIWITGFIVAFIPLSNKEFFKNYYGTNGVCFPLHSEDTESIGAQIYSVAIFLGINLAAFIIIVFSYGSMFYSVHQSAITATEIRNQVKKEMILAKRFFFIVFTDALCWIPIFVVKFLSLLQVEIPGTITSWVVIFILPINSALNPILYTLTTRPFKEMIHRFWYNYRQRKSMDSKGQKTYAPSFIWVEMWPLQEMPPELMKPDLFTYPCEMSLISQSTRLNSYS
# Sequence of UniProt P09874 (whole entry, looked up): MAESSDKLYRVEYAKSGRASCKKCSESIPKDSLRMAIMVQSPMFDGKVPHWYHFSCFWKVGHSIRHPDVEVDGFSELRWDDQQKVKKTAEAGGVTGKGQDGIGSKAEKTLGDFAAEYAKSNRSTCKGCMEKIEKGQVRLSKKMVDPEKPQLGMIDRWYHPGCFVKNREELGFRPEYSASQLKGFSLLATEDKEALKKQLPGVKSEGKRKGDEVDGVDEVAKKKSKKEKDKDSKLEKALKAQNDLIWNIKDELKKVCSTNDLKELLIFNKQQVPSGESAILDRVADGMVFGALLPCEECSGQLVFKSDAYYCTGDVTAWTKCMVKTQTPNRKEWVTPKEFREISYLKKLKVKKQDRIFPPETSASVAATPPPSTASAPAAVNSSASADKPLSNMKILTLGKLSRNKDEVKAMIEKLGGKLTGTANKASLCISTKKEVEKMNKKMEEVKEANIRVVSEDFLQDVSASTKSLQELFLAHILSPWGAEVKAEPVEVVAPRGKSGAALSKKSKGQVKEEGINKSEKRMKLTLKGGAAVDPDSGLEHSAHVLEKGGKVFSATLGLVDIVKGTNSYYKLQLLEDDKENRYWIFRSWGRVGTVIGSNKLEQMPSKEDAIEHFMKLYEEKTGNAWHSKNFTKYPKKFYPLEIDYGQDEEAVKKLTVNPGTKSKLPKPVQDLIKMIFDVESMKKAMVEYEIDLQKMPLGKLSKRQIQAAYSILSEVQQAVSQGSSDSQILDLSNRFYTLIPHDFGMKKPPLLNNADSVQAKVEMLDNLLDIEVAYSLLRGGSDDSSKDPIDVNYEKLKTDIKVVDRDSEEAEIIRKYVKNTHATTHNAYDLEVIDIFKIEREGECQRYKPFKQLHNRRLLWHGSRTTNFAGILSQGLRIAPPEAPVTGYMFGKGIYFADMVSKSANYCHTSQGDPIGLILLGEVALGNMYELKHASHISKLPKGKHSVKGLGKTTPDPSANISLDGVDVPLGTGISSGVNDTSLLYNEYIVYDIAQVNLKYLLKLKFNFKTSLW
# Sequence of UniProt Q9UJQ4 (whole entry, looked up): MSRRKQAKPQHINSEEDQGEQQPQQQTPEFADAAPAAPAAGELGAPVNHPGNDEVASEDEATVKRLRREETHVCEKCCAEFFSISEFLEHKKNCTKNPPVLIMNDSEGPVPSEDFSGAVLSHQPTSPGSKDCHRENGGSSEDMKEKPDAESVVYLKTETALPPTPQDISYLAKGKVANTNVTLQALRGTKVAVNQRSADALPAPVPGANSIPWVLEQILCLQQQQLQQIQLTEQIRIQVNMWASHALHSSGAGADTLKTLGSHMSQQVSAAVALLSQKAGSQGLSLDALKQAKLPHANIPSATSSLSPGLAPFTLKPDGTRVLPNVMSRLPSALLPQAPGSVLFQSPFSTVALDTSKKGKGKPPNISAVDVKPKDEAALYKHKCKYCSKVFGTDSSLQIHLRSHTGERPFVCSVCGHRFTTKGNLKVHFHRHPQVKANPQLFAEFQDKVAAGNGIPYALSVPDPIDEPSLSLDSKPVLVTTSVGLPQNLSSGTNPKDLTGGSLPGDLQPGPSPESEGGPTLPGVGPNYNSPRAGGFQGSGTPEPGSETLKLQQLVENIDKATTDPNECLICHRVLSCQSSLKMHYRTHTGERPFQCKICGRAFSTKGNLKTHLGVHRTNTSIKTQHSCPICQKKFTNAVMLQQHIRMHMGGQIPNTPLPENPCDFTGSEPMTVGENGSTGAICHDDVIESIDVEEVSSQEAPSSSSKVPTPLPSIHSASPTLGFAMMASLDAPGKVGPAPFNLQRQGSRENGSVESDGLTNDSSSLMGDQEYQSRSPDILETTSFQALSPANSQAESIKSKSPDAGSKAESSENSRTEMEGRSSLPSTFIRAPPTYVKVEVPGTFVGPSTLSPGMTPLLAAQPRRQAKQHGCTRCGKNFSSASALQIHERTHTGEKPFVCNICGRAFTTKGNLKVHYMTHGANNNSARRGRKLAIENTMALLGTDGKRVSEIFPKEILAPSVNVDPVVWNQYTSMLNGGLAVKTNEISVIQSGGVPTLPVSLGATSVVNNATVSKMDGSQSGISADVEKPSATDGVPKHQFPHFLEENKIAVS
SMILES,target,assay,test system,conditions,scale,quantity,value
c1ccc2c(c1)-c1cccc3c1c-2cc1ccccc13,Aryl hydrocarbon receptor,"reporter gene, agonist, luciferase reporter",ZF-4,1.524 µM,baseline: vehicle control,fold change,1.85
Nc1nnc(-c2ccccc2O)cc1N1CCN(Cc2ccc(OCCOCCNc3cccc4c3C(=O)N(C3CCC(=O)NC3=O)C4=O)c(F)c2)CC1 (stereo not drawn),"SMARCA2 (Homo sapiens, UniProt P51531)",immunoblot,"mouse, NCI-H2126 xenograft, tumour lysate","dose not given, end of study",baseline: vehicle,decrease in protein level,34%
CCCCCCCCCCCCC/C=C/[C@@H](O)[C@H](CO)NC(=O)CCCCCCCCCCCCC,"Protein SET (SET, Homo sapiens, UniProt Q01105)","lipid binding, GFP pull-down LC-MS/MS",A549 overexpressing GFP-tagged protein,,baseline: eluate plus flow-through,lipid fraction bound,4.7%
CC[C@H](C)[C@@H]1NC(=O)[C@H](C)NC(=O)[C@H]([C@@H](C)CC)NC(=O)[C@H](CCC(N)=O)NC(=O)[C@H](C)NC(=O)[C@H](CCCNC(=N)N)NC(=O)[C@H](C(C)C)NC(=O)[C@H](CC(C)C)NC(=O)[C@H](CCC(=O)O)NC(=O)[C@H](CCCNC(=N)N)NC(=O)CNC(=O)[C@@H](NC(=O)[C@H](CC(C)C)NC(=O)[C@H](CCCCN)NC(=O)[C@@H](NC(=O)[C@@H](NC(=O)[C@H](CCC(=O)O)NC(=O)[C@H](CCC(=O)O)NC(=O)[C@H](CCSC)NC(=O)[C@H](Cc2c[nH]c3ccccc23)NC(=O)[C@H](CO)NC(=O)[C@@H](N)CC(=O)O)C(C)C)[C@@H](C)CC)CSSC[C@@H]2NC(=O)[C@@H](NC(=O)[C@H](CCCCN)NC(=O)[C@H](CC(N)=O)NC(=O)[C@H](C)NC(=O)[C@H](CC(C)C)NC(=O)[C@H](C)NC(=O)[C@H](CO)NC(=O)[C@H](Cc3ccc(O)cc3)NC(=O)[C@H](CC(C)C)NC(=O)[C@H](CCC(N)=O)NC(=O)c3ccc(-c4c5ccc(=[N+](C)C)cc-5oc5cc(N(C)C)ccc45)c(C(=O)[O-])c3)CSSC[C@H](NC(=O)CNC(=O)[C@H](C(C)C)NC(=O)[C@H](Cc3c[nH]cn3)NC2=O)C(=O)N[C@@H]([C@@H](C)O)C(=O)N[C@@H](CCCCN)C(=O)N[C@@H](CCCNC(=N)N)C(=O)N[C@@H](CO)C(=O)N[C@@H](CC(C)C)C(=O)N[C@@H](C)C(=O)N[C@@H](CCCNC(=N)N)C(=O)N[C@@H](Cc2ccccc2)C(=O)N[C@H](C(=O)O)CSSC[C@@H](C(=O)NCC(=O)N[C@@H](CCSC)C(=O)N[C@@H](CO)C(=O)N[C@H](C(=O)N[C@@H](Cc2c[nH]c3ccccc23)C(=O)N[C@@H](CO)C(=O)O)[C@@H](C)O)NC1=O,"Relaxin receptor 1 (RXFP1, Homo sapiens, UniProt Q9HBX9)","binding, NanoBRET",,"concentration not given, added: relaxin 100 nM",,fast dissociation fraction,17.7%
O=C(COP(=O)(O)O)[C@@H](O)[C@H](O)[C@H](O)COP(=O)(O)O,"PMM2 (Homo sapiens, UniProt O15305)",,,"0.01 mM, unit not given",baseline: activity at 0 mM set to 100,enzyme activity,94.1 and 95.7 and 95.1
CN1C(=O)CCC(N2C(=O)c3cccc(N)c3C2=O)C1=O (stereo not drawn),"Sal-like protein 4 (SALL4, Homo sapiens, UniProt Q9UJQ4)","degrader, immunofluorescence",C33,,,DC50,inactive
O=C(O)c1ccc(Nc2ncc3c(n2)-c2ccc(Cl)cc2C(c2c(F)cccc2F)=NC3)cc1,human WNK2(h),kinase activity,,1 µM,,remaining activity,109%
CN1CCC2(CC1)NC(=O)c1c(c3ccc(Cl)c(Cl)c3n1C)C2C#N (racemic),"Serine/threonine-protein kinase VRK3 (VRK3, Homo sapiens, UniProt Q8IV63)","thermal stability, thermal shift",,10 µM,higher = stronger binding,delta Tm,0.1 °C
NCCCCC(=O)O,"SLC6A6 (Homo sapiens, UniProt P31641, G62A)","binding, microscale thermophoresis",,"250 µM, room temperature, added: 50 nM labelled protein",higher = more binding,normalised MST signal,0.0181
F[C@@H]1CCN(c2nccc(-c3cnn4ncccc34)n2)C1,"ABL1 (Homo sapiens, UniProt P00519, F317I)",KINOMEscan,,1 µM,,remaining binding,100%
CC[C@@H]1[C@H](F)C(=O)N[C@@H]1COc1nccc2cc(C(N)=O)c(OC)cc12,"MASTL (Homo sapiens, UniProt Q96GX5)","ATP-site probe binding, inhibitor, ActivX ATP probe profiling",THP-1 cell lysate,"0.04 mM, ATP loop site",,inhibition,3.9%
CN1C(=O)/C(=C2\Nc3ccccc3\C2=N/O)c2ccc(Br)cc21,Aryl hydrocarbon receptor,"reporter gene, agonist, luciferase reporter",ZF-4,0.16 µM,baseline: vehicle control,fold change,12
Cc1nc(CSc2nc(SCc3ccc(C(C)C)cc3)nc(=O)[nH]2)cs1,"TOP2A (Homo sapiens, UniProt P11388)",DNA cleavage,,15.6 µM,,mean linear DNA,0%
CC[C@H](C)[C@H](NC(=O)[C@H](CCCNC(=N)N)NC(=O)[C@H](Cc1c[nH]cn1)NC(=O)[C@H](CCCNC(=N)N)NC(=O)[C@H](CC(=O)O)NC(=O)[C@H](CC(=O)O)NC(=O)[C@@H](NC(=O)[C@H](CC(=O)O)NC(=O)[C@@H]1CCCN1C(=O)[C@@H](N)CC(C)C)[C@@H](C)O)C(=O)N[C@@H](CCC(=O)O)C(=O)N[C@@H](CCC(=O)O)C(=O)N[C@@H](CCCCN)C(=O)N[C@@H](CCCNC(=N)N)C(=O)N[C@@H](CCCCN)C(=O)N[C@@H](CCCNC(=N)N)C(=O)N[C@H](C(=O)N[C@@H](Cc1ccc(O)cc1)C(=O)N[C@@H](CCC(=O)O)C(=O)N[C@H](C(=O)N[C@@H](Cc1ccccc1)C(=O)N[C@@H](CCCCN)C(=O)N[C@@H](CO)C(=O)N[C@@H](C)C(=O)N[C@@H](CCSC)C(=O)N[C@@H](CCCCN)C(=O)N[C@@H](CCCCN)C(=O)N[C@@H](CO)C(=O)N1CCC[C@H]1C(=O)N[C@@H](Cc1ccccc1)C(=O)N[C@@H](CC(N)=O)C(=O)NCC(=O)N1CCC[C@H]1C(=O)O)[C@@H](C)O)[C@@H](C)O,"NF-kappa-B inhibitor alpha (Homo sapiens, UniProt P25963)","binding, ITC",,"pH 7.5, 293 K, 50 mM NaCl",,ΔH,-7.3 ± 0.2 kcal/mol
O=C(c1cc(Cc2n[nH]c(=O)c3ccccc23)ccc1F)N1CCn2nc(C(F)(F)F)nc2C1,"PARP1/HPF1 (Homo sapiens, UniProt P09874+Q9NWY4)",fluorescence polarization,,added: HPF1,baseline: PARP1 alone,affinity ratio,4.4 fold

# Repeated from above:
SMILES,target,assay,test system,conditions,scale,quantity,value
CC[C@H](C)[C@H](NC(=O)[C@H](CCCNC(=N)N)NC(=O)[C@H](Cc1c[nH]cn1)NC(=O)[C@H](CCCNC(=N)N)NC(=O)[C@H](CC(=O)O)NC(=O)[C@H](CC(=O)O)NC(=O)[C@@H](NC(=O)[C@H](CC(=O)O)NC(=O)[C@@H]1CCCN1C(=O)[C@@H](N)CC(C)C)[C@@H](C)O)C(=O)N[C@@H](CCC(=O)O)C(=O)N[C@@H](CCC(=O)O)C(=O)N[C@@H](CCCCN)C(=O)N[C@@H](CCCNC(=N)N)C(=O)N[C@@H](CCCCN)C(=O)N[C@@H](CCCNC(=N)N)C(=O)N[C@H](C(=O)N[C@@H](Cc1ccc(O)cc1)C(=O)N[C@@H](CCC(=O)O)C(=O)N[C@H](C(=O)N[C@@H](Cc1ccccc1)C(=O)N[C@@H](CCCCN)C(=O)N[C@@H](CO)C(=O)N[C@@H](C)C(=O)N[C@@H](CCSC)C(=O)N[C@@H](CCCCN)C(=O)N[C@@H](CCCCN)C(=O)N[C@@H](CO)C(=O)N1CCC[C@H]1C(=O)N[C@@H](Cc1ccccc1)C(=O)N[C@@H](CC(N)=O)C(=O)NCC(=O)N1CCC[C@H]1C(=O)O)[C@@H](C)O)[C@@H](C)O,"NF-kappa-B inhibitor alpha (Homo sapiens, UniProt P25963)","binding, ITC",,"pH 7.5, 293 K, 50 mM NaCl",,ΔH,-7.3 ± 0.2 kcal/mol
O=C(c1cc(Cc2n[nH]c(=O)c3ccccc23)ccc1F)N1CCn2nc(C(F)(F)F)nc2C1,"PARP1/HPF1 (Homo sapiens, UniProt P09874+Q9NWY4)",fluorescence polarization,,added: HPF1,baseline: PARP1 alone,affinity ratio,4.4 fold
